{"data": "Measurements from different studies", "gyrB with GyrA": "DNA gyrase subunit B, with GyrA (gyrB, Mycobacterium tuberculosis, UniProt P9WG45)", "note": "Lines come from different studies, so protocols differ. ± gives the spread as reported.", "sequence of UniProt P9WG45 (whole entry, looked up)": "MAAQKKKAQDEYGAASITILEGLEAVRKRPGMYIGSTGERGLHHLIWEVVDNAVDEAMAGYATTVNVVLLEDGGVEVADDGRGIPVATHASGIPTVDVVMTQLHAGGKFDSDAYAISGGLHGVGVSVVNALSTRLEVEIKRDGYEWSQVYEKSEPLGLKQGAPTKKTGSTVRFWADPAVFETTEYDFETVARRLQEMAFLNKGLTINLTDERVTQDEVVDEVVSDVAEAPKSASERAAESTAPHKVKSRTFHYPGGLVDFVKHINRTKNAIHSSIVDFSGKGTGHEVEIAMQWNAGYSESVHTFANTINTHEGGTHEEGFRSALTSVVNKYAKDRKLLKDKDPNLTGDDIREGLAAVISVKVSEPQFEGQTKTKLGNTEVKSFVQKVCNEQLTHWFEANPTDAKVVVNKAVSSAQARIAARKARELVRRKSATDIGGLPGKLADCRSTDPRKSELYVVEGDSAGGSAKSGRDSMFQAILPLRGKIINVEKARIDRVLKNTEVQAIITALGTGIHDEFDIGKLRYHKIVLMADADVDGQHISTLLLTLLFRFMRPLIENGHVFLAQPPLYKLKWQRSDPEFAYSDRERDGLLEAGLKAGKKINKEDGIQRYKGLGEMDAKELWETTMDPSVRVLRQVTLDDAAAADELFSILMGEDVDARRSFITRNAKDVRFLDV", "sequence of UniProt Q7NDN8 (whole entry, looked up)": "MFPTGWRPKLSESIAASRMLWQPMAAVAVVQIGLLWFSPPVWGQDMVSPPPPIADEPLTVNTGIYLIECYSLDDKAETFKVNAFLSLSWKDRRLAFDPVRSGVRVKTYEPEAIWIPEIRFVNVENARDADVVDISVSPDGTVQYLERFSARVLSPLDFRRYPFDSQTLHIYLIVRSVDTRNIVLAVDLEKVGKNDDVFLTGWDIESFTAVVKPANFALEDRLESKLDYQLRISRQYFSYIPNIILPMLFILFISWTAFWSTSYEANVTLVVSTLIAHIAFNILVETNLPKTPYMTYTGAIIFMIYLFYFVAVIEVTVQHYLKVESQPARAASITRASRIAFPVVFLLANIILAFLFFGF", "sequence of UniProt P23975 (whole entry, looked up)": "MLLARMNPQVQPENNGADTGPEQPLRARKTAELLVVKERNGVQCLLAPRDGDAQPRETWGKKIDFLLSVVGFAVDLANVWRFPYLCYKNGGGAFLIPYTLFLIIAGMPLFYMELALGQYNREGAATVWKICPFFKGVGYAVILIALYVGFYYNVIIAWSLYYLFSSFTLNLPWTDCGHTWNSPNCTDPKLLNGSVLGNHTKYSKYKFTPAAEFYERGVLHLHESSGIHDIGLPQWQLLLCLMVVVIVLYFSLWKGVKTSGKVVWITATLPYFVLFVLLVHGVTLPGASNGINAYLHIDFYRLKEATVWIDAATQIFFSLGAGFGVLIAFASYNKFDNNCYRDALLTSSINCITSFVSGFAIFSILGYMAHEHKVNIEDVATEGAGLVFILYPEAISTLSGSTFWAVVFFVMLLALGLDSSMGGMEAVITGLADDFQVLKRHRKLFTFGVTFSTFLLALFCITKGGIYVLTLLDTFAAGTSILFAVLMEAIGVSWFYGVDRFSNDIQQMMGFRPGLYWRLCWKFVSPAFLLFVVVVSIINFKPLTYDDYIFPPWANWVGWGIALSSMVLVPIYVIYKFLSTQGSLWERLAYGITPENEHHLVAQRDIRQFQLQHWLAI", "sequence of UniProt P30926 (whole entry, looked up)": "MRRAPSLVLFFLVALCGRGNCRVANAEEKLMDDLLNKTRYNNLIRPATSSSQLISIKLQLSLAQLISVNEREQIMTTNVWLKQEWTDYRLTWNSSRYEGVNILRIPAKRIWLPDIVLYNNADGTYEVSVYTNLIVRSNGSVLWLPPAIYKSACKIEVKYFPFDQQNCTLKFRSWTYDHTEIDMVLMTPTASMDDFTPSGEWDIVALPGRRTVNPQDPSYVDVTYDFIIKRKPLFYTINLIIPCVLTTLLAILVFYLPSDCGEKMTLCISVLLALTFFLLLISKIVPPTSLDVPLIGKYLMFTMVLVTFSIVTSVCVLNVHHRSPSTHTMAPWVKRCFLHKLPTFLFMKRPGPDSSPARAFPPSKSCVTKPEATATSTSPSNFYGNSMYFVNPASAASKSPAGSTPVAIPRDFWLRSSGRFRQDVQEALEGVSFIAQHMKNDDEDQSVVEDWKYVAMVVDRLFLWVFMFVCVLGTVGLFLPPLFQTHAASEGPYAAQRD", "sequence of UniProt P32297 (whole entry, looked up)": "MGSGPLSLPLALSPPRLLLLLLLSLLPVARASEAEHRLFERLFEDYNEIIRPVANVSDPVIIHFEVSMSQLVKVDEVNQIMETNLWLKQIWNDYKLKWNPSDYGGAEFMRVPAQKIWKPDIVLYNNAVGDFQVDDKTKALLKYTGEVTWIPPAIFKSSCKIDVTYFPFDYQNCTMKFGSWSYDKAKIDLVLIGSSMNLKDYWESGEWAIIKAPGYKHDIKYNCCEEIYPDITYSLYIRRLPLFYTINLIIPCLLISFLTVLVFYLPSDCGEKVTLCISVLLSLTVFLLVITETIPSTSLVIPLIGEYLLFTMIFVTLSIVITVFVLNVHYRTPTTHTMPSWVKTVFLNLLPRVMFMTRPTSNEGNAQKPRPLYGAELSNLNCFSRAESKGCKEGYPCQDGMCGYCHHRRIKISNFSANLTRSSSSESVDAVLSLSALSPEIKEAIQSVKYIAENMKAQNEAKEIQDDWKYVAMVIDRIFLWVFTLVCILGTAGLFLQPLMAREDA", "sequence of UniProt Q05421 (whole entry, looked up)": "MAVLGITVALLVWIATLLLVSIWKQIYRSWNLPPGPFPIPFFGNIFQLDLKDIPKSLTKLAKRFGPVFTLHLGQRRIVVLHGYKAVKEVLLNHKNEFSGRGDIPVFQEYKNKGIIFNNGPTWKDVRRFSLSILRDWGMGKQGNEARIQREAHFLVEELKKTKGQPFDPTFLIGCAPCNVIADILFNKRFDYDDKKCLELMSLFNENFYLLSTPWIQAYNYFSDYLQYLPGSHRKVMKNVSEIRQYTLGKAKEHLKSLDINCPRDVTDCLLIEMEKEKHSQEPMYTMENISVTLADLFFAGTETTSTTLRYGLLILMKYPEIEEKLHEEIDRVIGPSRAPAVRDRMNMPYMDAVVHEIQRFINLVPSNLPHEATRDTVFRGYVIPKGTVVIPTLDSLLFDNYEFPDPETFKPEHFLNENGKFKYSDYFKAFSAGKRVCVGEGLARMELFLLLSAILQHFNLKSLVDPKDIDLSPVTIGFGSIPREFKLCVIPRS", "sequence of UniProt Q99571 (whole entry, looked up)": "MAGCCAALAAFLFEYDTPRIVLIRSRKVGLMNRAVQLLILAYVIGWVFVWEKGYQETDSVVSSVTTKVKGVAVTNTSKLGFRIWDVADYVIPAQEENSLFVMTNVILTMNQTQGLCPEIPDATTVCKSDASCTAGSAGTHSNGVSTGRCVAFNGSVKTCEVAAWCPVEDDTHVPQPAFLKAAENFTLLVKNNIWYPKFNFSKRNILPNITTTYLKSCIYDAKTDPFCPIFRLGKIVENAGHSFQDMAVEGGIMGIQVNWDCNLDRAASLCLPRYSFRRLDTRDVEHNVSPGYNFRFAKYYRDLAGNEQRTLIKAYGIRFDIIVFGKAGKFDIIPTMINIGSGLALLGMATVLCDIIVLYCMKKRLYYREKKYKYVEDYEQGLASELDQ", "sequence of UniProt Q96JH7 (whole entry, looked up)": "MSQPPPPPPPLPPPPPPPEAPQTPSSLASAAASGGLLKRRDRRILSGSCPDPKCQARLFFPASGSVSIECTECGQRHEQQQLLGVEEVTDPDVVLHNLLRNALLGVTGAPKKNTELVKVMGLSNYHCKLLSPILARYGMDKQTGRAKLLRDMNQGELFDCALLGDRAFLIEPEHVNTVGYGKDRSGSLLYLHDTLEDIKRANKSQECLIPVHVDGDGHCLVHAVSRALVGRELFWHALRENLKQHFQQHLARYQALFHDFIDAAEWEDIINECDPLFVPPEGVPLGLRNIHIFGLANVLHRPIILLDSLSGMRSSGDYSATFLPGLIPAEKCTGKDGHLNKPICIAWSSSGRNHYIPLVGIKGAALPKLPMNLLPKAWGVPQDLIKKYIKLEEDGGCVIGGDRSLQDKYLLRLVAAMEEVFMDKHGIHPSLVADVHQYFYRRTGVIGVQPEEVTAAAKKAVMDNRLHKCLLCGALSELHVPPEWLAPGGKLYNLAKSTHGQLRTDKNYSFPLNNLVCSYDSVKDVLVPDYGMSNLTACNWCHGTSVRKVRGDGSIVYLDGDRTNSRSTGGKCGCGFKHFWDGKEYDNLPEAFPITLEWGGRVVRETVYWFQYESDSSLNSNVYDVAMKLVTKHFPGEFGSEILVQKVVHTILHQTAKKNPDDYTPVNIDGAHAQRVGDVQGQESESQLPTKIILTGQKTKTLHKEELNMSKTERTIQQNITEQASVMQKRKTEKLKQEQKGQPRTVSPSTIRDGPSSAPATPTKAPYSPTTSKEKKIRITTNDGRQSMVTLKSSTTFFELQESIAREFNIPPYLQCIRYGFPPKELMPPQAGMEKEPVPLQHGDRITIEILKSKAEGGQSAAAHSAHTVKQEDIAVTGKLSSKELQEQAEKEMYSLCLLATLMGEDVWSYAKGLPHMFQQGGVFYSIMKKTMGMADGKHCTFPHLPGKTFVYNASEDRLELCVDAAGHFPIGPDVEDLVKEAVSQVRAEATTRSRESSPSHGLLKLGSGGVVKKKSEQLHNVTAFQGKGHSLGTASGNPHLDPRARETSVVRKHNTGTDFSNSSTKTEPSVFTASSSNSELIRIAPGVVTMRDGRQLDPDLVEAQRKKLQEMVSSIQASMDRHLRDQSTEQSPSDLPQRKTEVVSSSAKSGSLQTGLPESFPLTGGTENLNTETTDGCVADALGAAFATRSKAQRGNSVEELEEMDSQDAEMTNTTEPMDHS"}
{"SMILES": "CC(NC(C)(C)C)C(=O)c1cccc(Cl)c1 (stereo not shown)", "tested on": "Proton-gated ion channel (glvI, Gloeobacter violaceus, UniProt Q7NDN8)", "test": "proton-induced current, inhibitor, two-electrode voltage clamp", "test system": "Xenopus oocytes", "setting": "holding -60 mV, proton pH50", "quantity": "IC50", "result": "14.9 µM"}
{"SMILES": "CNC(C)Cc1ccc2c(c1)OCO2 (stereo not shown)", "tested on": "SLC6A2 (Homo sapiens, UniProt P23975)", "quantity": "IC50", "result": "4.9 ± 0.3 µM"}
{"SMILES": "O=C(O)CN(CCN(CC(=O)O)CC(=O)O)CC(=O)O", "tested on": "8-oxo-(d)GTP phosphatase (mutT1, Mycobacterium tuberculosis, UniProt P9WIY3)", "quantity": "IC50", "result": "3400 ± 900 µM"}
{"SMILES": "O=S(=O)(c1ccc(C(F)(F)F)cc1)N1CCNCC1COc1ccc2ccccc2c1 (stereo not shown)", "tested on": "P2X purinoceptor 4 (P2RX4, Homo sapiens, UniProt Q99571)", "test": "Ca2+ flux, antagonist", "test system": "human cells expressing P2RX4", "setting": "racemate tested", "quantity": "IC50", "result": "> 10 µM"}
{"SMILES": "COC(=O)CCc1c(C(=O)N2CCOCC2)[nH]c2ccc(Cl)cc12", "tested on": "gyrB with GyrA", "test": "inhibitor", "quantity": "IC50", "result": "> 500 µM"}
{"SMILES": "Clc1ccccc1C1(c2ccnc(-c3ccccc3)n2)CCNCC1", "tested on": "Vero-E6", "test": "CellTiter-Glo ATP", "setting": "concentration not given, 72 h, retest 8-point duplicates", "how to read": "baseline: DMSO 0%, hyamine -100%, more negative, more toxic", "quantity": "cytotoxicity efficacy", "result": "-16.4%"}
{"SMILES": "COc1ccc2c3c([nH]c2c1)C(C)=NCC3", "tested on": "Dyrk1a (Rattus norvegicus, UniProt Q63470)", "test": "inhibitor", "quantity": "IC50", "result": "4.59 ± 0.46 µM"}
{"SMILES": "O=C(CCc1c(C(=O)N2CCCC2)[nH]c2ccc(Cl)cc12)Nc1ccc(Cl)cc1", "tested on": "gyrB with GyrA", "test": "inhibitor", "quantity": "IC50", "result": "174 µM"}
{"SMILES": "O=C(O)CCCO", "tested on": "Calcium/calmodulin-dependent protein kinase type II subunit alpha (Camk2a, Mus musculus, UniProt P11798)", "test": "[3H]HOCPCA binding", "test system": "mouse cortical neuron homogenate", "quantity": "IC50", "result": "2.04 µM"}
{"SMILES": "O=C(CCc1c(C(=O)N2CCCCC2)[nH]c2ccc(Cl)cc12)Nc1ccc(Cl)cc1", "tested on": "gyrB with GyrA", "test": "inhibitor", "quantity": "IC50", "result": "191 µM"}
{"SMILES": "C[C@@]12CC[C@H](O)C[C@@H]1CC[C@H]1[C@H]2CC[C@@]2(C)C(=O)CC[C@H]12", "tested on": "HTR3A (Homo sapiens, UniProt P46098)", "test": "ion channel, blocker, FLIPR", "quantity": "IC50", "result": "6.15 µM"}
{"SMILES": "CC(C)C[C@H](NC(=O)OCc1ccccc1)C(=O)N[C@H](C=O)C[C@@H]1CCCNC1=O", "tested on": "Genome polyprotein, 3C-like protease (Lordsdale virus, UniProt P54634)", "quantity": "IC50", "result": "3.74 ± 0.42 µM"}
{"SMILES": "OCCCCO", "tested on": "Cytochrome P450 2E1 (Cyp2e1, Mus musculus, UniProt Q05421)", "test": "4-nitrophenol hydroxylation, inhibitor", "test system": "B6C3F1 mouse, liver microsomes", "setting": "30 min, added: 4-nitrophenol 50 µM", "quantity": "IC50", "result": "3200 µM"}
{"SMILES": "CN[C@]1(c2ccccc2Cl)CCCCC1=O", "tested on": "Neuronal acetylcholine receptor; alpha3/beta4 (Homo sapiens, UniProt P30926+P32297)", "test": "channel function, antagonist, IonWorks Barracuda", "quantity": "IC50", "result": "5.8 µM"}
{"SMILES": "C[C@H]1CN(c2n[nH]c3nc(N[C@H]4CC[C@H](NS(=O)(=O)CCC(F)(F)F)CC4)ncc23)CCO1", "tested on": "PRKCD (Homo sapiens, UniProt Q05655)", "test": "biochemical", "quantity": "IC50", "result": "≥ 20 µM"}
{"SMILES": "O=C(CCc1c(C(=O)Nc2ccncc2)[nH]c2ccc(C(F)(F)F)cc12)Nc1ccncc1", "tested on": "gyrB with GyrA", "test": "inhibitor", "quantity": "IC50", "result": "24 µM"}
{"SMILES": "CN(C)c1ccc(-c2nc(-c3cccs3)c(-c3cccs3)[nH]2)cc1", "tested on": "Vero-E6", "test": "CellTiter-Glo ATP", "setting": "concentration not given, 72 h, retest 8-point duplicates", "how to read": "baseline: DMSO 0%, hyamine -100%, more negative, more toxic", "quantity": "cytotoxicity efficacy", "result": "0%"}
{"SMILES": "COC(=O)CCc1c(C(=O)N2CCCC2)[nH]c2ccc(Cl)cc12", "tested on": "gyrB with GyrA", "test": "inhibitor", "quantity": "IC50", "result": "> 500 µM"}
{"SMILES": "O=c1[nH]c2ccccc2n1C1CCN(CCCC(c2ccc(F)cc2)c2ccc(F)cc2)CC1", "tested on": "VCPIP1 (Homo sapiens, UniProt Q96JH7)", "test": "enzyme activity, MALDI-TOF", "setting": "35 min preincubation, 30 °C", "quantity": "IC50", "result": "1.33 µM"}
{"note": "A few entries again:"}
{"SMILES": "C[C@H]1CN(c2n[nH]c3nc(N[C@H]4CC[C@H](NS(=O)(=O)CCC(F)(F)F)CC4)ncc23)CCO1", "tested on": "PRKCD (Homo sapiens, UniProt Q05655)", "test": "biochemical", "quantity": "IC50", "result": "≥ 20 µM"}
{"SMILES": "O=C(CCc1c(C(=O)Nc2ccncc2)[nH]c2ccc(C(F)(F)F)cc12)Nc1ccncc1", "tested on": "gyrB with GyrA", "test": "inhibitor", "quantity": "IC50", "result": "24 µM"}
{"SMILES": "CN(C)c1ccc(-c2nc(-c3cccs3)c(-c3cccs3)[nH]2)cc1", "tested on": "Vero-E6", "test": "CellTiter-Glo ATP", "setting": "concentration not given, 72 h, retest 8-point duplicates", "how to read": "baseline: DMSO 0%, hyamine -100%, more negative, more toxic", "quantity": "cytotoxicity efficacy", "result": "0%"}
